Published values gathered from unrelated publications.
Compare with care: the assays were run in different laboratories. Several values in a cell are separate wells, animals, samples, runs or records.
Target: MAP kinase-activated protein kinase 3 (MAPKAPK3, Homo sapiens, UniProt Q16644)
Chain of UniProt Q16644 (whole entry, looked up): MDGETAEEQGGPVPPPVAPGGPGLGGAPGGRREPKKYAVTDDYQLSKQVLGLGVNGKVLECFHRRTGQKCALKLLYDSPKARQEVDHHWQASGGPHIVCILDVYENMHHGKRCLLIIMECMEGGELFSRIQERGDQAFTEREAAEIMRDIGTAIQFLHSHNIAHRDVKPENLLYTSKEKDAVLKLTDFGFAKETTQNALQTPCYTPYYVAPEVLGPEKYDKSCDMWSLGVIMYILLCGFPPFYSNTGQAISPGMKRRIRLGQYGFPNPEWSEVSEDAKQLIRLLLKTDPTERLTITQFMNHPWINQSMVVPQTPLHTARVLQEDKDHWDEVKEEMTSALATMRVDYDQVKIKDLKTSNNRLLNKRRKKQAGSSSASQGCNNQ

O=C=[N][Ru-4]123([n]4c5ccc(O)cc5c5c6c(c7cc(F)c[n+]1c7c54)C(=O)NC6=O)[S+]1CC[S+]2CC[S+]3CC1 (centres unmarked)  remaining activity (enzyme activity; 100 nM, human enzyme, added: 10 µM ATP; reference: untreated): 105%
COCC12C(=O)NC3C4(C(OC)CC1O)C1CC5(O)C(OC)C(O)C(OC(C)=O)(C1C5OC(=O)c1ccccc1)C3(O)C(OC)C24 (centres unmarked)  remaining activity (kinase activity, inhibitor, ProQinase kinase profiling; 25 µM; reference: control): 110% and 112%
COc1c(OCCCN2CCOCC2)ccc2c1N=C(NC(=O)c1cnc(N)nc1)N1CCN=C21  remaining activity (kinase activity, inhibitor; 1 µM; reference: untreated control): 97%
C=CC(=O)Nc1cc(-c2nn(C3CCN(CCNC(=O)[C@H](C)CCC45CC6CC(CC(C6)C4)C5)CC3)c3ncnc(N)c23)ccc1Oc1ccccc1  inhibition (inhibitor, KiNativ profiling; biochemical; 2 µM): 18.2%
Nc1ncc(-c2cc(-c3cnn(CC(F)(F)F)c3)ncc2F)nc1C(=O)NC1CNCC(F)C1 (centres unmarked)  remaining activity (enzyme activity; 1 µM; reference: DMSO control): 103%
CN1CCN(Cc2ccc(-c3ccc(CO[C@H]4CCC[C@@H]4NC(=O)c4cc(-c5cnn(C)c5)cnc4N)cc3)cc2)CC1  inhibition (enzyme activity, inhibitor; 0.1 µM): 8%
C=CC(=O)Nc1cccc(-c2cnc3[nH]cc(C(=O)NC(C)(C)C)c3n2)c1  inhibition (kinase activity; 0.1 µM): -1% and 4%
NC(=O)C[C@H]1CCc2sc3ncnc(O[C@H]4CC[C@H](N5CCOCC5)CC4)c3c21  inhibition (enzyme activity, inhibitor; 10 µM): 2%
CN1CC[C@@H](COc2cnc(C#N)cc2-c2ccn3nc(NC(=O)C4CC4)cc3c2)C1  inhibition (enzyme activity, inhibitor; 1 µM): -20%
CCn1cc(C(=O)O)c(=O)c2c(N)c(F)c(NC3CCCCC3)cc21  inhibition (kinase activity; 0.1 µM, added: ATP at Km): -11.1%
O=C(Cc1ccc(OCc2ccccc2)cc1)NC1(C(=O)O)CCN(C(=O)c2ccc(-c3cccc(Cl)c3)cc2)CC1  activity vs control (enzyme activity, inhibitor; 10 µM): 108%
COc1ccc(NC(=O)Nc2ccc3c(c2)C(=O)N(C(C)CO)CC(C)C(CN(C)Cc2ccc4c(c2)OCO4)O3)cc1 (centres unmarked)  remaining activity (kinase activity, KinaseProfiler; 0.03 µM, species human; reference: control): 107%
CNC(=O)C[C@H](Cc1ccc(C#N)cc1)NC(=O)c1cc(-c2ccc(CN[C@H](C)c3ccc(C)cc3)o2)ccc1Cl  activity vs control (enzyme activity, inhibitor; 1 µM): 108%
NC(=O)[C@@H](O)C[C@H]1CCc2sc3ncnc(O[C@H]4CC[C@H](N5CCOCC5)CC4)c3c21  inhibition (enzyme activity, inhibitor; 10 µM): 7%
Cc1nc2c(F)cc(-c3nc(Nc4ccc(CNC(=O)CCCCCCC(=O)NO)cc4)ncc3F)cc2n1C(C)C  inhibition (enzyme activity, inhibitor; 1 µM): 14%
Cc1cccc(O[C@H]2CCC[C@@H](C(C)CNCc3ccncc3)C2)c1 (relative stereo)  inhibition (enzyme activity, inhibitor; 1 µM): 0%
CS(=O)(=O)Nc1cccc(-c2csc3cnc(Nc4ccc(N5CCN(CCCCCOc6cccc7c6C(=O)N(C6CCC(=O)NC6=O)C7=O)CC5)cc4)nc23)c1 (centres unmarked)  inhibition (probe labelling, inhibitor, KiNativ chemoproteomics; MOLT-4; 1 µM): -9.4%
